Measured values from different studies.
Compare with care: the assays were run in different laboratories. “And” joins repeats or separate records; there may be more than shown. ± gives the spread as reported.
ampC: Beta-lactamase (ampC, Escherichia coli K-12, UniProt P00811)
Oprk1: Kappa-type opioid receptor (Oprk1, Rattus norvegicus, UniProt P34975)
MC1R: Melanocyte-stimulating hormone receptor (MC1R, Homo sapiens, UniProt Q01726)
Sigmar1: Sigma non-opioid intracellular receptor 1 (Sigmar1, Rattus norvegicus, UniProt Q9R0C9)
ache: Acetylcholinesterase (ache, Electrophorus electricus, UniProt O42275)

| Compound | target | test | test system | setting | Ki |
| --- | --- | --- | --- | --- | --- |
| Cc1cc2c(cc1Cl)-c1c(c(C(=O)NC3CC4CC(C3C)C4(C)C)nn1-c1ccc(Cl)cc1Cl)C2 (stereo not drawn) | Cannabinoid receptor 1 (Cnr1, Mus musculus, UniProt P47746) | binding, radioligand displacement | mouse brain homogenate without cerebellum | added: [3H]CP-55,940 | 2670 ± 333 nM |
| N=C(N)NC(=O)c1ccc(C(=O)NCCCC[C@H](NC(=O)[C@H](Cc2c[nH]c3ccccc23)NC(=O)[C@H](CCCCN)NC(=O)CNC(=O)CCC(=O)NN=Cc2cc(C=NNC(=O)CCC(=O)NCC(=O)N[C@@H](CCCCN)C(=O)N[C@@H](Cc3c[nH]c4ccccc34)C(=O)N[C@@H](CCCCNC(=O)c3ccc(C(=O)NC(=N)N)[nH]3)C(N)=O)cc(C=NNC(=O)CCC(=O)NCC(=O)N[C@@H](CCCCN)C(=O)N[C@@H](Cc3c[nH]c4ccccc34)C(=O)N[C@@H](CCCCNC(=O)c3ccc(C(=O)NC(=N)N)[nH]3)C(N)=O)c2)C(N)=O)[nH]1 | Tryptase beta-2 (TPSB2, Homo sapiens, UniProt P20231) | non-competitive inhibitor | – | – | 22.5 nM and 22 nM |
| CC(C)C(Nc1ncnc2c1oc1ccccc12)C(=O)O (stereo not drawn) | ampC | – | – | – | 400000 nM |
| CC(=O)N[C@@H](CCCNC(=N)N)C(=O)N[C@@H](Cc1ccc(O)cc1)C(=O)N[C@@H](CCCN/C(N)=N/C(=O)NCCCCN)C(=O)N[C@@H](CC(C)C)C(=O)N[C@@H](CCCNC(=N)N)C(=O)N[C@@H](Cc1ccc(O)cc1)C(N)=O | Neuropeptide Y receptor type 5 (NPY5R, Homo sapiens, UniProt Q15761) | ligand displacement, radioligand | – | – | > 5000 nM |
| C=Cc1cc(OC)c2c(c1)c(=O)oc1c2cc(OC)c2c(O)ccc([C@@H]3O[C@H](C)[C@H](O)[C@@](C)(O)[C@H]3O)c21 | 2,3,4,5-tetrahydropyridine-2,6-dicarboxylate N-acetyltransferase (dapH, Staphylococcus aureus, UniProt A6QGU8) | enzyme activity, inhibitor, Lineweaver-Burk | – | added: acetyl-CoA varied | 9130 ± 130 nM |
| C=CC=CCCC1OC2CCC3(C)OC4C(O)CC5(C)OC(CCC=C(C)C(C)=CC=NNC(=O)CCCCC6SCC7NC(=O)NC76)C(C)CC5OC4CC3OC2CCC1(C)O (stereo not drawn) | brevenal binding site (rat) | fluorescent ligand competition | rat brain synaptosomes | added: BODIPY FL-brevenal 10 nM | 324 ± 28 nM |
| N=C(N)NCCC[C@@H]1NC(=O)[C@H](CCCNC(=N)N)NC(=O)[C@H](NC(=O)[C@H](Cc2ccccc2)NC(=O)CNC(=O)CNC(=O)[C@H](Cc2ccc(O)cc2)NCc2ccccc2)CC(=O)NCC[C@@H](C(=O)N[C@@H](CCCNC(=N)N)C(=O)N2CCC[C@H]2C(=O)N[C@@H](CCCCN)C(N)=O)NC1=O | Oprk1 | cell-free assay | – | – | 403 nM |
| CC[C@H](C)[C@H](NC(=O)CN)C(=O)N[C@H](C(=O)N[C@@H](CC(N)=O)C(=O)N[C@H](C(=O)N[C@@H](CC(C)C)C(=O)N[C@@H](CCC(N)=O)C(=O)N[C@@H](C)C(=O)N[C@@H](Cc1ccc(O)cc1)C(=O)N[C@@H](Cc1ccc(O)cc1)C(=O)N[C@H]1CSSC[C@@H]2NC(=O)[C@H](CCCCN)NC(=O)[C@H](CCCNC(=N)N)NC(=O)CNC(=O)[C@H](CCCNC(=N)N)NC(=O)[C@H]([C@@H](C)O)NC(=O)[C@H](CO)NC(=O)[C@@H]3CSSC[C@H](NC(=O)[C@H](CCCNC(=N)N)NC(=O)CNC(=O)CNC(=O)[C@H](CCCNC(=N)N)NC(=O)[C@H](C(C)C)NC(=O)[C@H](CCCNC(=N)N)NC1=O)C(=O)N[C@@H](C)C(=O)N[C@@H](C(C)C)C(=O)N[C@@H](CC(C)C)C(=O)N[C@@H](CO)C(=O)N[C@@H](CSSC[C@@H](C(=O)N[C@@H](CCCNC(=N)N)C(=O)N[C@@H](CCCNC(=N)N)C(=O)N[C@@H](CCCCN)C(=O)N[C@@H](CCCCN)C(N)=O)NC2=O)C(=O)N[C@@H](CC(C)C)C(=O)N1CCC[C@H]1C(=O)N[C@@H](CCCCN)C(=O)N[C@@H](CCC(=O)O)C(=O)N[C@@H](CCC(=O)O)C(=O)N[C@@H](CCC(N)=O)C(=O)N[C@@H]([C@@H](C)CC)C(=O)NCC(=O)N[C@@H](CCCCN)C(=O)N3)[C@@H](C)O)[C@@H](C)CC | MC1R | ligand displacement in cells | – | – | 75 nM |
| CCC(=O)c1ccc2c(c1)sc(=O)n2CCN1CCCCCC1 | Sigmar1 | binding, radioligand binding | rat liver membranes | added: [3H](+)-pentazocine 5 nM | 4.5 ± 0.2 nM |
| CC(C)[C@H](NC(=O)c1ccc(CNc2nc3c(c(=O)[nH]2)CCC3)cc1)C(=O)NC1CNC1 | Collagenase 3 (MMP13, Homo sapiens, UniProt P45452) | enzyme activity, inhibitor | – | TFA salt stored 3 months in DMSO, added: fTHP-15(FAM) substrate | 63.7 ± 1.5 nM |
| OC(COCc1ccccc1Cl)CN1CC=C(c2c[nH]c3ccccc23)CC1 (racemic) | Sodium-dependent dopamine transporter (SLC6A3, Homo sapiens, UniProt Q01959) | ligand displacement, radioligand | – | – | 2130 nM |
| CCCCc1cc(Cc2ccccc2)cc2c1NCCC2NC(=O)C(N)Cc1c(C)cc(O)cc1C (stereo not drawn) | Kappa-type opioid receptor (OPRK1, Homo sapiens, UniProt P41145) | ligand displacement, radioligand | – | cell membranes | 34 nM |
| CC(=O)N(C)[C@@H](Cc1ccccc1)C(=O)N[C@@H](Cc1ccccc1)C(=O)N[C@@H](Cc1ccc2ccccc2c1)C(=O)N[C@@H](CCCNC(=N)N)C(=O)N[C@@H](CC(C)C)C(=O)N[C@@H](CCCNC(=N)N)C(=O)N[C@@H](CCCNC(=N)N)C(=O)N[C@H](C)C(=O)N[C@@H](CCCNC(=N)N)C(=O)N1CCC[C@H]1C(=O)N[C@@H](CCCCN)C(N)=O | Oprk1 | ligand displacement, radioligand | – | – | 27 nM |
| CC[C@H](C)[C@H](NC(=O)CN)C(=O)N[C@H](C(=O)N[C@@H](CC(N)=O)C(=O)N[C@H](C(=O)N[C@@H](CC(C)C)C(=O)N[C@@H](CCC(N)=O)C(=O)N[C@@H](CCCCN)C(=O)N[C@@H](Cc1ccc(O)cc1)C(=O)N[C@@H](C)C(=O)N[C@H]1CSSC[C@@H]2NC(=O)[C@H](CCCCN)NC(=O)[C@H](CCCNC(=N)N)NC(=O)CNC(=O)[C@H](CCCNC(=N)N)NC(=O)[C@H]([C@@H](C)O)NC(=O)[C@H](CO)NC(=O)[C@@H]3CSSC[C@H](NC(=O)[C@H](CCCNC(=N)N)NC(=O)CNC(=O)CNC(=O)[C@H](CCCNC(=N)N)NC(=O)[C@H](C(C)C)NC(=O)[C@H](CCCNC(=N)N)NC1=O)C(=O)N[C@@H](C)C(=O)N[C@@H](C(C)C)C(=O)N[C@@H](CC(C)C)C(=O)N[C@@H](CO)C(=O)N[C@@H](CSSC[C@@H](C(=O)N[C@@H](CCCNC(=N)N)C(=O)N[C@@H](CCCNC(=N)N)C(=O)N[C@@H](CCCCN)C(=O)N[C@@H](CCCCN)C(N)=O)NC2=O)C(=O)N[C@@H](CC(C)C)C(=O)N1CCC[C@H]1C(=O)N[C@@H](CCCCN)C(=O)N[C@@H](CCC(=O)O)C(=O)N[C@@H](CCC(=O)O)C(=O)N[C@@H](CCC(N)=O)C(=O)N[C@@H]([C@@H](C)CC)C(=O)NCC(=O)N[C@@H](CCCCN)C(=O)N3)[C@@H](C)O)[C@@H](C)CC | MC1R | ligand displacement in cells | – | – | 55 nM |
| CNC(=O)C1CCN(c2ccccc2NC(=O)c2ccc(-c3cc(O)ccc3C)c(C)n2)CC1 | Tyrosine-protein kinase TXK (TXK, Homo sapiens, UniProt P42681) | cell-free assay, TR-FRET | – | – | 4 nM |
| CCSc1nnc(-c2ccc(S(=O)(=O)NC(=O)COC(C)=O)cc2)o1 | ache | enzyme activity, inhibitor, Ellman | – | – | 47 nM |
| COC(=O)N(C)[C@@H](Cc1ccccc1)C(=O)N[C@@H](Cc1ccccc1)C(=O)N[C@@H](Cc1ccc2ccccc2c1)C(=O)N[C@@H](CCCNC(=N)N)C(=O)N[C@@H](CC(C)C)C(=O)N[C@@H](CCCNC(=N)N)C(=O)N[C@@H](CCCNC(=N)N)C(=O)N[C@H](C)C(=O)N[C@@H](CCCNC(=N)N)C(=O)N1CCC[C@H]1C(=O)N[C@@H](CCCCN)C(N)=O | Oprk1 | ligand displacement, radioligand | – | – | 24.4 nM |
| CC[C@H](C)[C@H](NC(=O)[C@@H](CCc1ccc(O)cc1)CNC(=O)[C@@H]1CCCN1C(=O)[C@H](CCCNC(=N)N)NC(=O)[C@@H](N)CCCNC(=N)N)C(=O)N[C@@H](CC(C)C)C(=O)O | Neurotensin receptor type 2 (NTSR2, Homo sapiens, UniProt O95665) | ligand displacement, radioligand | – | cell membranes | 3600 nM |
| C=C[C@@]1(C)CC(=O)[C@]2(O)[C@@]3(C)[C@@H](O)CCC(C)(C)[C@@H]3[C@H](OC(C)=O)[C@H](OC(C)=O)[C@@]2(C)O1 | Solute carrier family 2, facilitated glucose transporter member 1 (SLC2A1, Homo sapiens, UniProt P11166) | ligand displacement, radioligand | – | cell membranes | 949 nM |
| COC(=O)C1C(OC(c2ccc(Cl)cc2)c2ccc(Cl)cc2)CC2CCC1N2C (single isomer, unassigned) | Histamine H1 receptor (Hrh1, Rattus norvegicus, UniProt P31390) | ligand displacement, radioligand | – | – | 27100 nM |
| CC[C@H](C)[C@H](NC(=O)[C@@H]1CSSC[C@H](NC(=O)[C@H](Cc2ccc(O)cc2)NC(=O)CNC(C)=O)C(=O)N[C@@H](CO)C(=O)N[C@@H](CCCNC(=N)N)C(=O)N[C@@H](CO)C(=O)N[C@@H](Cc2ccc(O)cc2)C(=O)N2CCC[C@H]2C(=O)N2CCC[C@H]2C(=O)N[C@@H](C(C)C)C(=O)N1)C(=O)N1CCC[C@H]1C(=O)N[C@@H](CC(=O)O)C(=O)O | Mannan-binding lectin serine protease 2 (Homo sapiens, UniProt O00187) | – | – | added: 250 µM Z-L-Lys-SBzl substrate | 200 ± 10 nM |
| CC(C)(C)c1cc(B(O)O)cc(C(C)(C)C)c1 | ampC | enzyme activity, inhibitor | – | added: CENTA | 3200 nM |
| O=c1sc2ccccc2n1CCCN1CCCCCC1 | Sigmar1 | binding, radioligand binding | rat liver membranes | added: [3H](+)-pentazocine 5 nM | 4.1 ± 0.3 nM |
| COc1ccc([C@@H]2N=NC(NCCc3c[nH]c4ccc(C)cc34)=NC2=O)cc1 | ache | enzyme activity, inhibitor | – | – | 280 nM |

For quick reference, copied from above:
| Compound | target | test | test system | setting | Ki |
| --- | --- | --- | --- | --- | --- |
| C=C[C@@]1(C)CC(=O)[C@]2(O)[C@@]3(C)[C@@H](O)CCC(C)(C)[C@@H]3[C@H](OC(C)=O)[C@H](OC(C)=O)[C@@]2(C)O1 | Solute carrier family 2, facilitated glucose transporter member 1 (SLC2A1, Homo sapiens, UniProt P11166) | ligand displacement, radioligand | – | cell membranes | 949 nM |
| COC(=O)C1C(OC(c2ccc(Cl)cc2)c2ccc(Cl)cc2)CC2CCC1N2C (single isomer, unassigned) | Histamine H1 receptor (Hrh1, Rattus norvegicus, UniProt P31390) | ligand displacement, radioligand | – | – | 27100 nM |
| CC[C@H](C)[C@H](NC(=O)[C@@H]1CSSC[C@H](NC(=O)[C@H](Cc2ccc(O)cc2)NC(=O)CNC(C)=O)C(=O)N[C@@H](CO)C(=O)N[C@@H](CCCNC(=N)N)C(=O)N[C@@H](CO)C(=O)N[C@@H](Cc2ccc(O)cc2)C(=O)N2CCC[C@H]2C(=O)N2CCC[C@H]2C(=O)N[C@@H](C(C)C)C(=O)N1)C(=O)N1CCC[C@H]1C(=O)N[C@@H](CC(=O)O)C(=O)O | Mannan-binding lectin serine protease 2 (Homo sapiens, UniProt O00187) | – | – | added: 250 µM Z-L-Lys-SBzl substrate | 200 ± 10 nM |
| CC(C)(C)c1cc(B(O)O)cc(C(C)(C)C)c1 | ampC | enzyme activity, inhibitor | – | added: CENTA | 3200 nM |
